Measured values pooled from the literature.
Parts stem from different laboratories: compare values within a part only. Positions count from the first letter of the parent shown.

Block 1 — technique: universal PBM; form: double-stranded DNA, one strand shown; matrix: in vitro; concentration: 600 nM; direction: higher = stronger binding
Target: Sal-like protein 4, full length isoform A (SALL4, Homo sapiens, UniProt Q9UJQ4, residues 1-1053)
UniProt Q9UJQ4, sequence (whole entry, looked up): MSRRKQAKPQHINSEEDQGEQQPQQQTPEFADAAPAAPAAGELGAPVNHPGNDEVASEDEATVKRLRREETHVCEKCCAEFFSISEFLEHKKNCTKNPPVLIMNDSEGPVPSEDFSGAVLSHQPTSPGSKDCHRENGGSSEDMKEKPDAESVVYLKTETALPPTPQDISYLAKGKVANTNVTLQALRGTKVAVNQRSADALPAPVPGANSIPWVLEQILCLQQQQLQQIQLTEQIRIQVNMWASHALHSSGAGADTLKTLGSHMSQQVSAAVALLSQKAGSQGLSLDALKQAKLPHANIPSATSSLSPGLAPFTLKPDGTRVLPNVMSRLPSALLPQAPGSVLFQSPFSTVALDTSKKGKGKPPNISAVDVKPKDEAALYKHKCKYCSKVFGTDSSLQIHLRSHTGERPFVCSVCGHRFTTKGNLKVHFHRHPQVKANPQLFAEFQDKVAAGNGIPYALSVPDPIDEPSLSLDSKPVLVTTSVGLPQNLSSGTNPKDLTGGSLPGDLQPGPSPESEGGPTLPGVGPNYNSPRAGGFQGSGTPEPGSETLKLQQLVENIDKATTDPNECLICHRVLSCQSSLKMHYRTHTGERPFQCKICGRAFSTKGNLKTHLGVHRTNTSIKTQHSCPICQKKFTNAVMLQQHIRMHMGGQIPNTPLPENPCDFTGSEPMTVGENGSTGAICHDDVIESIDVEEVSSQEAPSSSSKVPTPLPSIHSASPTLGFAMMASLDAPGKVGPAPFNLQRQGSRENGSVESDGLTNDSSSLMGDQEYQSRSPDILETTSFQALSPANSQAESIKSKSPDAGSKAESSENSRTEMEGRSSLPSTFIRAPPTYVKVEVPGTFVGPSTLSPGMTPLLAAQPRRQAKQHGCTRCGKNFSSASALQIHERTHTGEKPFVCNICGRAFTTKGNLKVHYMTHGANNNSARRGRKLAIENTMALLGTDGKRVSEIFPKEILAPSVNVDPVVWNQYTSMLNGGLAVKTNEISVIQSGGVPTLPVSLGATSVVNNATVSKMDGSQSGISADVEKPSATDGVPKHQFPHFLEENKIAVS
Setting: 8-mer, flanks averaged, mean of replicates
| Oligonucleotide | E-score |
| --- | --- |
| CGGCATGC | -0.234 |
| AATGGGCC | -0.251 |
| ATTCGATA | 0.283 |
| GTGATAAA | 0.231 |
| ACAACTAC | 0.113 |
| CTTCATGC | -0.0576 |
| ACCAATGA | 0.14 |
| GCAGGGCA | -0.184 |
| TCGTATAA | 0.267 |
| ACCAGCCG | -0.323 |
| GACGGCAC | -0.232 |

Block 2 — target: CCNA2, cyclin fold, Cln2 fusion (human); technique: yeast growth competition, sequencing; matrix: yeast; setting: strong parent motif; reference: not given; direction: higher = stronger binding
Starting sequence: BORA docking peptide (human); SSLRRKLFLDGNG
| Variant | normalised enrichment score |
| --- | --- |
| N12A | 2.48 |
| R4A | 1.23 |
| L3A | 4.99 |
| R5K L9F | 2.08 |
| R5A | 0.86 |
| F8L | 1.23 |
| K6A | 2.07 |
| S2A | 2.67 |

Block 3 — technique: DHFR PCA, deep sequencing; matrix: yeast; added: (+)-ABA 4.8 µM; reference: wild-type fitted maximum; direction: higher = stronger binding
Target: ABI1, truncated, D143A, DHFR fusion (Arabidopsis thaliana)
Setting: methotrexate growth selection, single substitutions
Starting sequence: PYL1, truncated, DHFR fusion (Arabidopsis thaliana); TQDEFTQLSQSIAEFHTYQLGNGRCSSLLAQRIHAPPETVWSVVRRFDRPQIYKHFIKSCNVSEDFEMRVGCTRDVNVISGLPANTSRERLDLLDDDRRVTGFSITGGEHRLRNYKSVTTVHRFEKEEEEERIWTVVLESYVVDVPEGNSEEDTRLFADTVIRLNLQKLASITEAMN
| Variant | relative binding score [%] |
| --- | --- |
| V143M | 13.8 |
| V136D | 6.15 |
| E64W | 45.6 |
| L93W | 22.9 |
| L91F | 3 |
| P37L | 25.6 |
| S117T | 6.18 |
| Q7D | 75.9 |
| Y115E | -19.7 |
| D96F | -9.57 |

Single results of other studies
| Substance | target | test | test system | conditions | how to read | measurement | result |
| --- | --- | --- | --- | --- | --- | --- | --- |
| PhoQ, residues 284 288 289 292 302 303 NLCILV | PhoP, residues 12 14 15 18 19 YHFSH (Escherichia coli, UniProt P23836) | Sort-seq, item: YFP reporter | E. coli | PhoQ-PhoP variant library, added: 10 µM Mg2+ | reference: high Mg2+ state, higher = stronger signaling | fold induction | 1.95 |

Repeated from above (block 3):
| Variant | relative binding score [%] |
| --- | --- |
| P37L | 25.6 |
| S117T | 6.18 |
